Experimental data from different studies.
Lines come from different studies, so protocols differ. Numbers after ± are the reported error.

Cc1nn(-c2ccc(S(=O)(=O)N[C@H](CO)CC(C)C)cc2)c2nn3nnnc3nc12 — necrotic cells (HT-29; AO/EB staining; 1 µM, 24 h): 16.5 ± 2.12%
COc1ccc(S(=O)(=O)NCc2c[nH]nc2-c2cccs2)cc1 — parasitemia (Plasmodium vivax; reinvasion; 1, human, human red blood cells; 3× EC50, 20 h): 0%
COc1cc(CNC(=O)C[C@H](C)CCC=C(C)C)ccc1OCc1cn(-c2ccccc2F)nn1 — growth percent (MOLT-4 leukaemia cells; SRB; 10 µM, 48 h): 74.8%
CCCCN1C(=O)c2cccc3c(NCCCCCCN4CCOCC4)ccc(c23)C1=O — blue shift of emission maximum (lysosomes; HEK293; lysosomal micro-polarity; baseline: water): 37 nm
COc1cc(CCC(C)=O)ccc1O — IC50 (mAb 6-AT6; antibody binding, indirect competitive ELISA; with: coating antigen 3-OVA): > 4 µg/mL
COc1cc(CNC(=O)C[C@H](C)CCC=C(C)C)ccc1OCc1cn(-c2ccc(Cl)c(Cl)c2)nn1 — growth percent (MCF7 breast cancer cells; SRB; 10 µM, 48 h): 49.6%
CCCC[C@H](NC(=O)[C@@H](NC(=O)[C@H](CC(=O)O)NC(=O)[C@H](CCC(N)=O)NC(=O)[C@H](CC(C)C)NC(=O)[C@H](CC(C)C)NC(=O)[C@H](CCCN)NC(=O)[C@H](CCCNC(=N)N)NC(=O)[C@H](C)NC(=O)[C@H](CO)NC(=O)[C@H](CC(C)C)NC(=O)[C@H](CCC(N)=O)NC(=O)[C@H](CC)NC(=O)[C@H](CC(C)C)NC(=O)[C@@H](NC(=O)[C@H](CCCN)NC(=O)[C@H](CCCNC(=N)N)NC(=O)[C@H](Cc1ccc(O)cc1)NC(=O)[C@H](CO)NC(=O)[C@H](CCC(N)=O)NC(=O)[C@@H](NC(=O)[C@H](Cc1ccccc1)NC(=O)[C@@H](NC(=O)[C@H](C)NC(=O)[C@H](CC(=O)O)NC(=O)[C@@H](C)NC(=O)CCc1ccc(O)cc1)[C@@H](C)CC)[C@@H](C)O)C(C)C)[C@@H](C)CC)C(=O)N[C@@H](CC(=O)O)C(=O)N[C@H](CCCNC(=N)N)C(=O)NC — relative potency (GH release; rat, male, serum; subcutaneous, dose not given, 15 and 30 min; baseline: reference GHRH agonist JI-38): 1 to 4 fold
COc1cc(CNC(=O)C[C@H](C)CCC=C(C)C)ccc1OCc1cn(-c2ccccc2Cl)nn1 — growth percent (MOLT-4 leukaemia cells; SRB; 10 µM, 48 h): 16.3%
C=C(CC)C(=O)c1ccc(OCC(=O)NCCNC(=O)COc2ccc(C(=O)C(=C)CC)c(Cl)c2Cl)c(Cl)c1Cl — inhibition (glutathione S-transferase, human; enzyme activity; SK-OV-3 cell lysate; 0.2 µM): ~35%
CC(=O)N[C@@H](CC(N)=O)C(=O)NCC(=O)N[C@@H](C)C(=O)N[C@@H](C)C(N)=O — rate constant k1 (Asn-Gly peptide isomerisation to succinimide; 1H NMR time course; pH 5.1, 55 °C): 0.00341 h⁻¹
COc1ccc(CC2COC(=O)C2Cc2ccc3c(c2)OCO3)cc1OC (mixture of isomers) — apoptotic cells (A2780cis; annexin V/7-AAD; 3.25 µM, 72 h; baseline: untreated): increased
COc1cc(CNC(=O)C[C@H](C)CCC=C(C)C)ccc1OCc1cn(-c2ccc(C#N)cc2)nn1 — growth (MDA-MB-231/ATCC; SRB; 10 µM, 48 h): 81.4%
Cc1cc(O)c(C=O)c2c1C(=O)Oc1c(CO)c(O)c3c(c1O2)C(O)OC3=O (stereo not drawn) — sperm abnormalities (rat, male, streptozotocin-induced diabetes, cauda epididymis; 5 mg/kg, 9 weeks): 13.2 ± 1.47%
COc1cc(CNC(=O)C[C@H](C)CCC=C(C)C)ccc1OCc1cn(-c2cccc([N+](=O)[O-])c2)nn1 — growth (A549/ATCC; SRB; 10 µM, 48 h): 56.8%
O=Cc1c(O)ccc2ccccc12 — log2 fold change (HUVEC; RNA sequencing, item: CASP12; 75 µM, 24 h; baseline: DMSO): -2.96

For quick reference, copied from above:
COc1cc(CNC(=O)C[C@H](C)CCC=C(C)C)ccc1OCc1cn(-c2ccc(C#N)cc2)nn1 — growth (MDA-MB-231/ATCC; SRB; 10 µM, 48 h): 81.4%
COc1cc(CNC(=O)C[C@H](C)CCC=C(C)C)ccc1OCc1cn(-c2ccccc2Cl)nn1 — growth percent (MOLT-4 leukaemia cells; SRB; 10 µM, 48 h): 16.3%
